# Experimental data gathered from unrelated publications.
# Protocols differ between the studies behind these lines.
# Organism: Klebsiella pneumoniae
Compound,test,system,conditions,MIC
CC(C)C[C@H](NC(=O)[C@@H](NC(=O)[C@H](CCCNC(=N)N)NC(=O)[C@H](CCC(N)=O)NC(=O)[C@H](Cc1ccccc1)NC(=O)[C@H](Cc1ccc(O)cc1)NC(=O)[C@H](CC(N)=O)NC(=O)[C@H](Cc1c[nH]c2ccccc12)NC(=O)[C@@H](NC(=O)[C@H](CCCNC(=N)N)NC(=O)[C@H](CCCCN)NC(=O)[C@@H](N)Cc1ccccc1)C(C)C)C(C)C)C(=O)N[C@H](C(=O)N[C@@H](CCCCN)C(=O)N[C@@H](CCCCN)C(=O)N[C@@H](Cc1ccc(O)cc1)C(N)=O)C(C)C,broth dilution,ATCC 700603,,12.5 µM
N=C(N)NCCC[C@@H]1NC(=O)[C@@H](CCCNC(=N)N)NC(=O)[C@H](CCCNC(=N)N)NC(=O)[C@@H](C(c2ccccc2)c2ccccc2)NC(=O)[C@@H](C(c2ccccc2)c2ccccc2)NC(=O)[C@@H](C(c2ccccc2)c2ccccc2)NC(=O)[C@@H](CCCNC(=N)N)NC1=O,,"ATCC 700603, ESBL SHV-18",,64 mg/L
C=CCO/N=C(\C(=O)N[C@@H]1C(=O)N(OS(=O)(=O)O)C1(C)C)c1csc(N)n1,agar dilution,"2146, NDM-1",,4 mg/L
N=C(N)NCCC[C@@H]1NC(=O)[C@H](CCCNC(=N)N)NC(=O)[C@@H](CCCNC(=N)N)NC(=O)[C@@H](CCCNC(=N)N)NC(=O)[C@@H](C(c2ccccc2)c2ccccc2)NC(=O)[C@H](Cc2c[nH]c3ccccc23)NC(=O)[C@@H](C(c2ccccc2)c2ccccc2)NC1=O,,"ATCC 700603, ESBL SHV-18",,32 mg/L
CC1(C)[C@H](NC(=O)/C(=N\OCC(=O)N2CCC[C@@H]2C(=O)O)c2nsc(N)n2)C(=O)N1OS(=O)(=O)O,agar dilution,"09-20, NDM-1",,8 mg/L
CC[C@H](C)[C@H](NC(=O)[C@@H](CCCNC(=N)N)NC(=O)[C@H](CCCNC(=N)N)NC(=O)[C@@H]1CCCN1C(=O)[C@@H]1CCCN1C(=O)[C@H](Cc1ccccc1)NC(=O)[C@@H]1CCCN1C(=O)[C@H](CCCNC(=N)N)NC(=O)[C@@H]1CCCN1C(=O)[C@H](CC(C)C)NC(=O)[C@H](Cc1ccc(O)cc1)NC(=O)[C@@H]1CCCN1C(=O)[C@@H]1CCCN1C(=O)[C@H](CCCCN)NC(=O)[C@H](CC(=O)O)NC(=O)[C@@H](N)C(C)C)C(=O)N[C@@H](Cc1ccc(O)cc1)C(=O)N[C@@H](CC(N)=O)C(=O)N[C@H](CCCNC(=N)N)C(N)=O,broth microdilution,DSM 681,"18 h, 37 °C, 25% MHB2",4 mg/L
CCn1c(-c2ccc(-c3ccc(OC)cc3)cc2)c(-c2ccc(-c3ccc(OC)cc3)cc2)n(CC)c1=[Se],broth microdilution,carbapenem-resistant BAA-1705,24 h,> 40 µM
CN[C@@H]1[C@H](O)[C@H](NC)[C@H]2O[C@]3(O)[C@H](O[C@@H]2[C@H]1O)O[C@H](C)C[C@H]3NC(=O)Cc1ccc(Cl)cn1,"microbial growth, broth dilution",ATCC33495,,> 200 mg/L
CC(=O)N[C@H](Cc1ccc(F)cc1)C(=O)N[C@@H](CCN)C(=O)N[C@H](C(=O)N[C@@H](CCN)C(=O)N[C@H]1CCNC(=O)[C@H]([C@@H](C)O)NC(=O)[C@H](CCN)NC(=O)[C@H](CCN)NC(=O)[C@H](CC(C)C)NC(=O)[C@@H](Cc2ccccc2)NC(=O)[C@H](CCN)NC1=O)[C@@H](C)O,broth microdilution,"ATCC 13883, colistin-susceptible",,> 64 mg/L
CC1(C)[C@H](NC(=O)/C(=N\OC2(C(=O)O)CCCCC2)c2csc(N)n2)C(=O)N1OS(=O)(=O)O,agar dilution,"09-20, NDM-1",,2 mg/L
CC[C@H](C)[C@H](NC(=O)[C@@H](CCCNC(=N)N)NC(=O)[C@H](CCCNC(=N)N)NC(=O)[C@H](CC(C)C)NC(=O)[C@H](Cc1c[nH]c2ccccc12)NC(=O)[C@H](CCCNC(=N)N)NC(=O)[C@@H]1CCCN1C(=O)[C@H](CCCNC(=N)N)NC(=O)[C@@H]1CCCN1C(=O)[C@H](CC(C)C)NC(=O)[C@H](Cc1ccc(O)cc1)NC(=O)[C@@H]1CCCN1C(=O)[C@@H]1CCCN1C(=O)[C@H](CCCCN)NC(=O)[C@H](CC(=O)O)NC(=O)[C@@H](N)C(C)C)C(=O)N[C@@H](Cc1ccc(O)cc1)C(=O)N[C@@H](CC(N)=O)C(=O)N[C@H](CCCNC(=N)N)C(N)=O,broth microdilution,DSM 681,"18 h, 37 °C, 25% MHB2",4 mg/L
CCCCCCCC(=O)N[C@@H](CCN)C(=O)N[C@H](C(=O)N[C@@H](CCN)C(=O)N[C@H]1CCNC(=O)[C@H]([C@@H](C)O)NC(=O)[C@H](CCN)NC(=O)[C@H](CCN)NC(=O)[C@H](CC(C)C)NC(=O)[C@@H](Cc2ccc(Br)cc2)NC(=O)[C@H](CCN)NC1=O)[C@@H](C)O,broth microdilution,"ATCC 13883, colistin-susceptible",,0.25 to 1 mg/L
CC[C@H](C)[C@H](NC(=O)CNC(=O)[C@H](CC(=O)O)NC(=O)[C@H](CCCNC(=N)N)NC(=O)[C@@H](NC(=O)[C@H](Cc1c[nH]cn1)NC(=O)[C@H](CCC(N)=O)NC(=O)CNC(=O)[C@@H](NC(=O)[C@H](CCCNC(=N)N)NC(=O)[C@H](CCC(=O)O)NC(=O)[C@@H](NC(=O)[C@H](CCCCN)NC(=O)[C@H](CCCCN)NC(=O)[C@H](Cc1ccccc1)NC(=O)[C@@H](NC(=O)[C@H](CCCCN)NC(=O)[C@H](Cc1c[nH]c2ccccc12)NC(=O)[C@@H](N)CCCCN)[C@@H](C)CC)[C@@H](C)CC)C(C)C)C(C)C)C(=O)N[C@H](C(=O)N[C@@H](CCCCN)C(=O)N[C@@H](C)C(=O)NCC(=O)N[C@@H](CO)C(=O)N[C@@H](C)C(=O)N[C@H](C(=O)N[C@@H](CCC(N)=O)C(=O)N[C@H](C(=O)N[C@H](C(=O)NCC(=O)N[C@@H](CCC(N)=O)C(=O)N[C@@H](C)C(=O)N[C@@H](C)C(=O)N[C@@H](C)C(=O)N[C@H](C(=O)N[C@@H](C)C(=O)N[C@@H](CCCCN)C(N)=O)[C@@H](C)CC)C(C)C)C(C)C)C(C)C)[C@@H](C)CC,"bacterial growth, broth microdilution",cation-adjusted Mueller Hinton broth,"18 h, 37 °C",≤ 0.062 µM
COc1ccc2ccc(O)c(/C=N/[C@H]3CCCC[C@H]3/N=C/c3cc(F)ccc3O)c2c1,"bacterial growth, broth microdilution",carbapenem-resistant,,> 40 µM
CC1(C)[C@H](NC(=O)/C(=N\OCCN)c2csc(N)n2)C(=O)N1OS(=O)(=O)O,agar dilution,"2146, NDM-1",,> 64 mg/L
CC(NC(=O)c1ccccc1)C(CCCCCCCCCCCCCCC(=O)CCCCCCCC(OC(=O)c1ccccc1)C(C)NC(=O)c1ccccc1)OC(=O)c1ccccc1 (stereo not shown),resazurin,,,> 50 µM
CC[C@H](C)[C@H](NC(=O)[C@@H](CCCNC(=N)N)NC(=O)[C@H](CCCNC(=N)N)NC(=O)[C@@H]1CCCN1C(=O)[C@@H]1CCCN1C(=O)[C@H](CCCNC(=N)N)NC(=O)[C@@H]1CCCN1C(=O)[C@H](CCCNC(=N)N)NC(=O)[C@@H]1CCCN1C(=O)[C@H](CC(C)C)NC(=O)[C@H](Cc1ccc(O)cc1)NC(=O)[C@H](Cc1ccc(O)cc1)NC(=O)[C@@H]1CCCN1C(=O)[C@H](CCCCN)NC(=O)[C@H](CC(=O)O)NC(=O)[C@@H](N)C(C)C)C(=O)N[C@@H](Cc1ccc(O)cc1)C(=O)N[C@@H](CC(N)=O)C(=O)N[C@H](CCCNC(=N)N)C(N)=O,broth microdilution,DSM 681,"18 h, 37 °C, 25% MHB2",8 mg/L
COc1ccc2ccc(O)c(/C=N/[C@H]3CCCC[C@H]3/N=C/c3cccc(F)c3O)c2c1,"bacterial growth, broth microdilution",carbapenem-resistant,,> 40 µM
CC[C@H](C)[C@H](NC(=O)[C@@H](CCCNC(=N)N)NC(=O)[C@H](CCCNC(=N)N)NC(=O)[C@@H]1CCCN1C(=O)[C@@H]1CCCN1C(=O)[C@H](CCCNC(=N)N)NC(=O)[C@@H]1CCCN1C(=O)[C@H](CCCNC(=N)N)NC(=O)[C@@H]1CCCN1C(=O)[C@H](CC(C)C)NC(=O)[C@H](Cc1c[nH]cn1)NC(=O)[C@@H]1CCCN1C(=O)[C@@H]1CCCN1C(=O)[C@H](CCCCN)NC(=O)[C@H](CC(=O)O)NC(=O)[C@@H](N)C(C)C)C(=O)N[C@@H](Cc1ccc(O)cc1)C(=O)N[C@@H](CC(N)=O)C(=O)N[C@H](CCCNC(=N)N)C(N)=O,broth microdilution,DSM 681,"18 h, 37 °C, 25% MHB2",4 mg/L
C#CCOc1ccc(CN[C@@]2(C)C[C@H](O[C@H]3[C@H](Oc4c5cc6cc4Oc4ccc(cc4Cl)[C@@H](O)[C@@H](NC(=O)[C@@H](CC(C)C)NC)C(=O)N[C@@H](CC(N)=O)C(=O)N[C@H]6C(=O)N[C@H]4C(=O)N[C@H](C(=O)N[C@H](C(=O)O)c6cc(O)cc(O)c6-c6cc4ccc6O)[C@H](O)c4ccc(c(Cl)c4)O5)O[C@H](CO)[C@@H](O)[C@@H]3O)O[C@@H](C)[C@H]2O)cc1OC,broth microdilution,"ATCC 27736, cation-adjusted Mueller-Hinton broth","18 to 20 h, 37 °C, 0.002% polysorbate 80",> 128 mg/L
COc1ccc2ccc(O)c(/C=N/[C@H]3CCCC[C@H]3/N=C/c3c(O)cccc3OC)c2c1,"bacterial growth, broth microdilution",carbapenem-resistant,,> 40 µM
CC(=CC(C)CCCCC(=O)O)C1OC2C=CC1OC(=O)C=CC=CC=CC1OC3CC1OC(C=CCC1OC(CC(O)C1C)C(O)C(O)C=CCCC=CC2)C3C (stereo not shown),microbial growth,DSM11678,,> 20 µM
